Measurements gathered from unrelated publications.
Each line is one published result; not all experiments were run side by side.
Organism: Staphylococcus aureus

The MIC of `CC[C@H](C)[C@H](NC(=O)[C@@H](Cc1ccccc1)NC)C(=O)N[C@@H](CO)C(=O)N[C@H](CCCNC(=N)N)C(=O)N[C@@H](C(=O)N[C@H](C(=O)OC[C@H](N)C(=O)N[C@H]1C(=O)N[C@@H](C)C(=O)N[C@@H](CC(C)C)C(=O)N[C@@H]([C@@H](C)CC)C(=O)O[C@H]1C)[C@@H](C)CC)[C@@H](C)CC` is reported as 0.125 to 0.25 µg/mL (broth microdilution; ATCC 29213, MSSA, Mueller-Hinton broth; 16 h, 37 °C).
`N=C(N)NCCC[C@@H]1NC(=O)[C@H](CCCNC(=N)N)NC(=O)[C@H](CCCNC(=N)N)NC(=O)[C@H](Cc2c[nH]c3ccccc23)NC(=O)[C@H](Cc2c[nH]c3ccccc23)NC(=O)[C@H](Cc2c[nH]c3ccccc23)NC(=O)[C@H](Cc2c[nH]c3ccccc23)NC(=O)[C@H](CCCNC(=N)N)NC1=O` has an MIC of 1.95 µM (broth microdilution; MRSA ATCC 43300, TSB; overnight).
The MIC of `N=C(N)NCCC[C@@H]1NC(=O)[C@H](CCCNC(=N)N)NC(=O)[C@H](CCCNC(=N)N)NC(=O)[C@H](CCCNC(=N)N)NC(=O)[C@H](Cc2c[nH]c3ccccc23)NC(=O)[C@H](CCCNC(=N)N)NC(=O)[C@H](CCCNC(=N)N)NC(=O)[C@@H](N)CCCCn2cc(nn2)C[C@@H](C(N)=O)NC1=O` is reported as 7.8 µg/mL (ATCC 25923; 24 h, 37 °C).
`CCCCCC/C=C\CCCCCCC[C@@H](O)Cc1cc(O)cc(O)c1` has an MIC of 8 µg/mL (microbial growth, broth dilution; USA300; drug-resistant strain).
With `NCCCC[C@@H]1NC(=O)[C@@H](CCCCN)NC(=O)[C@H](CCCCN)NC(=O)[C@@H](CCCCN)NC(=O)[C@H](Cc2c[nH]c3ccccc23)NC(=O)[C@@H](Cc2c[nH]c3ccccc23)NC(=O)[C@@H](N)CSCc2ccc(cc2)CSC[C@@H](C(N)=O)NC(=O)[C@@H](Cc2c[nH]c3ccccc23)NC(=O)[C@H](Cc2c[nH]c3ccccc23)NC(=O)[C@@H](CCCCN)NC1=O` the MIC was 16 to 32 µg/mL (Newman MSSA).
With `COc1ccc2c(c1)C=[N+]1C3CCCCC3[N+]3=Cc4c(ccc5ccc(OC)cc45)[O][Au-]13[O]2.F[P-](F)(F)(F)(F)F` (stereo not shown) the MIC was > 20 µM (bacterial growth, broth microdilution; vancomycin-intermediate; 24 h).
The MIC of `CCCO[C@H]1[C@H](O)[C@@H](N)[C@@H](O[C@H]2[C@H](O[C@@H]3O[C@H](CO)[C@@H](O[C@H]4O[C@@H](CN)[C@@H](O)[C@H](O)[C@H]4N)[C@H]3O)[C@@H](O)[C@H](N)C[C@@H]2N)O[C@@H]1CO` is reported as 16 µg/mL (microbial growth, broth dilution; MRSA; clinical isolate).
For `O=C1c2ccccc2NC(c2ccc(Cl)c([N+](=O)[O-])c2)N1/N=C/c1ccc(Cl)c([N+](=O)[O-])c1` (stereo not shown), the MIC was > 256 µg/mL (microbial growth, broth dilution; MRSA; 24 h, drug-resistant strain, clinical isolate).
For `CCCCCCCCCCN1C(=O)/C(=N\NC(N)=S)c2cc(C)ccc21`, the MIC was > 192 µg/mL (broth microdilution; BAA41 MRSA; 18 h, 37 °C).
For `c1ccc(CN2CCOCCOCCN(CCCCCCCCCCN3CCOCCOCCN(CCCCCCCCCCN4CCOCCOCCN(Cc5ccccc5)CCOCCOCC4)CCOCCOCC3)CCOCCOCC2)cc1`, the MIC was 6 µM (microbial growth).
For `COc1ccc2cc3[n+](cc2c1OCCCOc1ccc(Cl)cc1)CCc1cc2c(cc1-3)OCO2`, the MIC was 2 µg/mL (microbial growth; ATCC29247; drug-resistant strain, clinical isolate).
`CNC(CC(C)C)C(=O)NC1C(=O)NC(CC(N)=O)C(=O)NC2C(=O)NC3C(=O)NC(C(=O)NC(C(=O)O)c4cc(O)cc(O)c4-c4cc3ccc4O)C(O)c3ccc(c(Cl)c3)Oc3cc2cc(c3OC2OC(CO)C(O)C(O)C2OC2CC(C)(NCc3ccc(-c4ccc(Cl)cc4)cc3)C(O)C(C)O2)Oc2ccc(cc2Cl)C1O` (stereo not shown) has an MIC of 0.08 µg/mL (Sensitive ATCC 25923).
The MIC of `CC[C@H](C)[C@H](N)C1=N[C@H](C(=O)N[C@@H](CC(C)C)C(=O)N[C@H](CCC(=O)O)C(=O)N[C@H](C(=O)N[C@H]2CCCCNC(=O)[C@H](CC(N)=O)NC(=O)[C@@H](CC(=O)O)NC(=O)[C@H](Cc3c[nH]cn3)NC(=O)[C@@H](Cc3ccc(-c4ccccc4)cc3)NC(=O)[C@H]([C@@H](C)CC)NC(=O)[C@@H](CCCN)NC2=O)[C@@H](C)CC)CS1` is reported as 0.25 µg/mL (USA300 MRSA; 18 h, 37 °C, together with: ZnSO4 0.3 mM).
`CN(C)CCCNC(=O)[C@@H]1NC(=O)[C@@H]2Cc3ccc(cc3)Oc3cc4cc(c3O)-c3ccc5c(c[nH]c5c3)C[C@@H](NC(=O)C(N)c3ccc(O)cc3)C(=O)N[C@H](c3ccc(O)cc3)C(=O)N[C@H]4C(=O)N[C@@H](C(=O)N2C)c2ccc(cc2)Oc2cc1ccc2O` (stereo partly shown) gave an MIC of > 128 µg/mL (ATCC 33591 MRSA, Mueller-Hinton broth).
The MIC of `[Ag+].[S-]c1ccccn1.c1ccc(P(c2ccccc2)c2ccccc2)cc1.c1ccc(P(c2ccccc2)c2ccccc2)cc1` is reported as 50 µg/mL (agar dilution; methicillin-resistant; 24 h, 37 °C).
For `C/C(=N\NC(=N)N)c1nnn(-c2ccc(S(=O)(=O)NCCCCC(C)C)cc2)c1C`, the MIC was > 64 µg/mL (microbial growth, broth dilution; MRSA USA300; drug-resistant strain).
For `COc1c(CC=C(C)C)c(O)cc2c1[C@@H]1Oc3c(ccc(O)c3CC=C(C)C)[C@@H]1CO2`, the MIC was 128 µg/mL.
`CC(C)(C)c1ccc(COc2cc3c(=O)c(C(=O)NCCNCCO)cn(Cc4ccccc4)c3cc2Cl)cc1` gave an MIC of < 0.25 µg/mL (ATCC 43300 MRSA; ≥80% growth inhibition).
For `CN[C@@H]1[C@H](O)[C@H](NC)[C@H]2O[C@]3(O)[C@H](O[C@@H]2[C@H]1O)O[C@H](C)C[C@]3(O)CNCc1ccc(F)cc1`, the MIC was > 200 µg/mL (MSSA ATCC 29213).
With `CC[C@H](C)[C@H](NC(=O)[C@H](CC(C)C)NC(=O)[C@H](CCC(=O)O)NC(=O)[C@H](CO)NC(=O)[C@H](CCCNC(=N)N)NC(=O)[C@@H](N)CO)C(=O)N[C@H](C(=O)N[C@@H](CCCNC(=N)N)C(=O)N[C@@H](CCC(N)=O)C(=O)N[C@@H](CCCNC(=N)N)C(=O)N[C@@H](CC(C)C)C(=O)N[C@@H](Cc1ccccc1)C(N)=O)C(C)C` the MIC was > 400 µg/mL (broth microdilution; Mueller Hinton broth).
`CC(C)C[C@@H]1NC(=O)[C@H](C)NC(=O)[C@H](NC(=O)[C@@H](N)COC(=O)[C@@H](C)NC(=O)[C@@H](CC(C)C)NC(=O)[C@@H](N)Cc2ccccc2)[C@H](C(N)=O)OC(=O)[C@H](CC(C)C)NC1=O` has an MIC of > 32 µg/mL (MRSA ATCC 700698; TFA salt).
With `CN1C(=O)[C@@H]2NC(=O)[C@@H]3NC(=O)[C@@H](c4ccc(O)cc4)NC(=O)[C@H](NC(=O)C(NCc4ccc(Br)cc4)c4ccc(O)cc4)Cc4c[nH]c5cc(ccc45)-c4cc3cc(c4O)Oc3ccc(cc3)C[C@H]1C(=O)N[C@@H](C(=O)O)c1ccc(O)c(c1)Oc1ccc2cc1` (stereo partly shown) the MIC was 4 µg/mL (ATCC 33591 MRSA, Mueller-Hinton broth).
`CC(C)[C@H](NC(=O)[C@H](CCCNC(=N)N)NC(=O)[C@H](CCCNC(=N)N)NC(=O)[C@@H](NC(=O)[C@H](C)NC(=O)[C@H](CC(N)=O)NC(=O)[C@H](CCCNC(=N)N)NC(=O)[C@@H](NC(=O)[C@H](CCCNC(=N)N)NC(=O)[C@H](CCCNC(=N)N)NC(=O)[C@@H](NC(=O)[C@@H](NC(=O)[C@H](CCCNC(=N)N)NC(=O)[C@H](CCCNC(=N)N)NC(=O)[C@H](Cc1c[nH]c2ccccc12)NC(=O)[C@H](Cc1c[nH]c2ccccc12)NC(=O)CN)[C@@H](C)O)C(C)C)C(C)C)C(C)C)C(=O)O` has an MIC of 256 µg/mL (bacterial growth; MRSA clinical isolate; 18 h).
The MIC of `CC[C@H](C)c1occ2c(=O)c(C(=O)O)c(O)cc-2c1C` is reported as 50 µM (microbial growth, broth dilution; ATCC700699 MRSA; drug-resistant strain).
The MIC of `CC(C)CCCCCCCCC/C=C/C(=O)N[C@@H](CC(=O)O)C(=O)N[C@H]1CNC(=O)[C@@H]2CCCN2C(=O)[C@H](Cc2ccccc2)NC(=O)[C@@H]([C@@H](C)O)NC(=O)CNC(=O)[C@H](CC(=O)O)NC(=O)CNC(=O)[C@H](CC(=O)O)NC(=O)CNC(=O)[C@H]2CCCCN2C1=O` is reported as 16 µg/mL (MRSA USA300; together with: Ca2+ 1 mM).
With `NNc1ccc(Cl)cc1Cl` the MIC was 25 µg/mL (microbial growth; ATCC700699; drug-resistant strain).
With `CC(=NNC(=N)N)c1nnn(-c2ccc(C#CC3(O)CCCCC3)cc2)c1C` the MIC was ≤ 4 µg/mL (broth microdilution; MRSA USA300 NRS384).
With `CC(C)C[C@H](NC(=O)CN)C(=O)N[C@@H](CC(C)C)C(=O)N[C@@H](CCCCN)C(=O)N[C@@H](CC(C)C)C(=O)N[C@@H](CC(C)C)C(=O)N[C@@H](CCCCN)C(=O)N[C@@H](CCCCN)C(=O)N[C@@H](CC(C)C)C(=O)N[C@@H](CC(C)C)C(=O)N[C@@H](CCCCN)C(=O)N[C@@H](CC(C)C)C(=O)N[C@@H](CC(C)C)C(=O)N[C@@H](CCCCN)C(N)=O` the MIC was > 19 µM (ATCC 43300, CAMHB; 18 h, 37 °C).
